Assay results collected from several papers.
Each numbered part is a random draw from the data of one study; scales do not carry over between parts. Positions count from the first letter of the parent shown.

Sample 1 — technique: RNA Bind-n-Seq; form: RNA; sample: in vitro; tested at: 200 nM; notes: whole 134-nt RNA, ends assumed; together with: 150 mM LiCl; relative to: input library; direction: higher = stronger binding; measurement: log2 enrichment; library: 7-deaza-guanosine replaces G
Target: Ras GTPase-activating protein-binding protein 1, full length (G3BP1, Homo sapiens, UniProt Q13283)
Sequence of UniProt Q13283 (whole entry, looked up): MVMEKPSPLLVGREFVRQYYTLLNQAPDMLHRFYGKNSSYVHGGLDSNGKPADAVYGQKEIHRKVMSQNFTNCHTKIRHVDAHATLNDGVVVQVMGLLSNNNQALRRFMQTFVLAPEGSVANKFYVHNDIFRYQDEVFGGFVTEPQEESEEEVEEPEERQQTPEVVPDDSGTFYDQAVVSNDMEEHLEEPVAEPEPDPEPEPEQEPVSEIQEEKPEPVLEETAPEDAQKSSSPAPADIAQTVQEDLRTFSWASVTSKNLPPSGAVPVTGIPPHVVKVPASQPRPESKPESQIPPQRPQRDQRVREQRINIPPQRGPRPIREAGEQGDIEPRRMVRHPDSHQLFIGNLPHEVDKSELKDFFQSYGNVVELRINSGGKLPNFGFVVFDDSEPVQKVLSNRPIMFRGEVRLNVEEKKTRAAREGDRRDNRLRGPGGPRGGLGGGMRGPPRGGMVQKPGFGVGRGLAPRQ
Shared flanks, not repeated: GGGAGUUCUACAGUCCGACGAUC … UGGAAUUCUCGGGUGUCAAGG
Strand = CCUGUGCUACACAUCGUAUGUACCGAAUCAAAUUUUUUUAAACCCCCAAAUUUUUUUAAAAAAGUAUUAUGUUACGCCGUUCGGAUCUGC; value = -0.0289
Strand = UGGGAGGUGGAUUUUGUUUAUUUUUUUAGCUCAUUUCCAGGGGUGGGAAUUUUUUUUUAAUAUGAGUCAUGAAUAAAGUUGUUUUUGAAA; value = 0.171
Strand = AGUCCUGUGCUACACAUCGUAUGUACCGAAUCGGGUGGGUUUUUUUGGGUUUUUGGGAAAGUAUUAUGUUACGCCGUUCGGAUCUGCACU; value = -0.218
Strand = GGGACGUCAGCAUCGGCAUCAAGUGUGCCCCUGGAGUGGUAGGCCCCGCCGAAGCUGACAUCGACUUCGACAUCAUCCGCAAUGACAAUG; value = -2.17
Strand = UGGCCCUGGUGGCAUGCGGGGAGGAAGAGGUGGCCUCAUGGAUCGAGGUGGUCCCGGUGGAAUGUUCAGAGGUGGCCGUGGUGGAGACAG; value = 0.325
Strand = UAACUUUAGAGGAGGAUCUGAUGGAUAUGGCAGUGGACGUGGAUUUGGGGAUGGCUAUAAUGGGUAAGGAGGAGGACCUGGAGGUGGCAA; value = -0.105
Strand = UCCUGUGCUACACAUCGUAUGUACCGAAUCGGGGUUUUUUUGGGGUUUGGGGAAAGGGGAAAGUAUUAUGUUACGCCGUUCGGAUCUGCA; value = 0.00442
Strand = AAGUCCUGUGCUACACAUCGUAUGUACCGAAUCGGGGAAAGGGGUGGGGAAAGGGGAAAGUAUUAUGUUACGCCGUUCGGAUCUGCACUU; value = 0.033
Strand = UGGGAGGUGGAUUUUGUUUGUUUUUUUAGCUCAUUUCCAGGGGUGGGAAUUUUUUUUUAAUAUGUGUCAUGAAUAAAGUUGUUUUUGAAA; value = 0.286
Strand = CCUGUGCUACACAUCGUAUGUACCGAAUCGGGGCCCCCCGGGCCCCCCGGGGCCCCCCGGAAAGUAUUAUGUUACGCCGUUCGGAUCUGC; value = -1.26
Strand = GUCCUGUGCUACACAUCGUAUGUACCGAAUCGGAAAAAAGGAAAAAAGGGGAAAAAAGGAAAGUAUUAUGUUACGCCGUUCGGAUCUGCA; value = -0.498

Sample 2 — technique: protein-binding microarray; form: hairpin DNA; sample: in vitro; tested at: not given; relative to: not given; direction: higher = stronger binding; measurement: median fluorescence; shared flanks, not repeated: GAGGCCA … TGGCCTCACACTC
Target: GDNF-inducible zinc finger protein 1, full length (GZF1, Homo sapiens, UniProt Q9H116, residues 1-711)
Notes: whole hairpin DNA, median over replicate spots
Target sequence (chain): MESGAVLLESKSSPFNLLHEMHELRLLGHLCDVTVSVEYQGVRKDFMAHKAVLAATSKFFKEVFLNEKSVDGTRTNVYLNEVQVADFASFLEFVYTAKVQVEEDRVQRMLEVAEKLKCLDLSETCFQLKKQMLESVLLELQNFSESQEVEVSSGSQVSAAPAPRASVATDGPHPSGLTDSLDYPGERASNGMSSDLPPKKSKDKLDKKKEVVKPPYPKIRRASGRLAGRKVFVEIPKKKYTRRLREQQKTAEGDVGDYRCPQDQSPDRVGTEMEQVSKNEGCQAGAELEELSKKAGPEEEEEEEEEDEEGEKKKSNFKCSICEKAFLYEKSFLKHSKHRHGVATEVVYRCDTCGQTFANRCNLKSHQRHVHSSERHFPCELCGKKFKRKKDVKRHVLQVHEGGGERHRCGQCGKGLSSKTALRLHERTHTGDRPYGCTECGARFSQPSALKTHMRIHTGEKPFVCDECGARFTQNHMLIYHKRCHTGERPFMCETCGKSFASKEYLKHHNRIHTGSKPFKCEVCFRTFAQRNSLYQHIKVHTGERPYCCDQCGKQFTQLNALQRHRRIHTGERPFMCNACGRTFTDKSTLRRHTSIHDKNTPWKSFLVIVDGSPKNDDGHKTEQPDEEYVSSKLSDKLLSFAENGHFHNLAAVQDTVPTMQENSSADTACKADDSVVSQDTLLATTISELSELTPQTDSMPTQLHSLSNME
Strand = TTACGCGAATGCCTCCTGGCATTCGCGTAA (5mC at 13 31); value = 508 a.u.
Strand = TTACGGTACGGCCTCCTGGCCGTACCGTAA (5mC at 16 28); value = 658 a.u.
Strand = TTCGGGTAATGCCTCCTGGCATTACCCGAA (5mC at 34); value = 445 a.u.
Strand = TTACGGCGATGCCTCCTGGCATCGCCGTAA; value = 582 a.u.
Strand = CGACGGTAATGCCTCCTGGCATTACCGTCG (5mC at 8 36); value = 725 a.u.
Strand = TCACGGTAATGCCTCCTGGCATTACCGTGA (5mC at 9); value = 619 a.u.
Strand = TTACGGTACGGCCTCCTGGCCGTACCGTAA (5mC at 28); value = 666 a.u.
Strand = TTACGGTAATGCCTCCTGGCATTACCGTAA (5mC at 11); value = 625 a.u.
Strand = TTACGGTAATGCCTCCTGGCATTACCGTAA (5mC at 11 33); value = 471 a.u.
Strand = TCGCGGTAATGCCTCCTGGCATTACCGCGA; value = 746 a.u.
Strand = CGACGGTAATGCCTCCTGGCATTACCGTCG; value = 752 a.u.
Strand = TTACGCGAATGCCTCCTGGCATTCGCGTAA; value = 533 a.u.
Strand = TTACGGTCATGCCTCCTGGCATGACCGTAA; value = 503 a.u.
Strand = CTACGGTAATGCCTCCTGGCATTACCGTAG; value = 701 a.u.

Sample 3 — technique: RNA Bind-n-Seq; form: RNA; sample: in vitro; tested at: not given; relative to: input RNA pool; direction: higher = stronger binding; measurement: bound/input enrichment
Target: RING finger protein unkempt homolog, zinc fingers 1-6, GST-SBP tag (UNK, Homo sapiens, UniProt Q9C0B0, residues 30-357)
Sequence of UniProt Q9C0B0 (30-357, looked up): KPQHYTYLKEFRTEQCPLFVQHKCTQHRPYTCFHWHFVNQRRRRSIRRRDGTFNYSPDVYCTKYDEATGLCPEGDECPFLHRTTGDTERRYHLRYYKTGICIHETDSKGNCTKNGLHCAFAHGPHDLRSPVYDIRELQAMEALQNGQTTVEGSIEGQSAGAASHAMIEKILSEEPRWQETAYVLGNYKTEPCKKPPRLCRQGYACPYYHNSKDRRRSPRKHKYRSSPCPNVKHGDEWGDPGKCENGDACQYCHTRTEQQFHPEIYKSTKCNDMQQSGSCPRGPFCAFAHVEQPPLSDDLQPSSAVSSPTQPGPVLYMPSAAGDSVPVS
Notes: RNA with constant flanks, human and mouse sites, ends assumed
Shared flanks, not repeated: GGGAGUUCUACAGUCCGACGAUC … CAACAGAGGAUUGAGCAUCA
Strand = GUGUUGGUACAGAGUGCUCUGUACCAGUGCUCAUCAUCCCUUCUUCAUACCAACGGUCCCUAGUUAUAGGAAUUUAAUAUUUUUAAAAGUUUUACAUUGCUGUAUAUUCAAAGAUUUGUU; value = 12.7 ratio
Strand = UAUACUUCCCUGGGACCACGCAUAACUGAUGUAGCCACAUAGAGAGGAGUAGGCUGUCGGCUUAUUGACGUCUCCAAAUUGCAGCCUCACAUCUAAUGCUUACAAAGAUAAUGGAUCGCU; value = 0.205 ratio
Strand = GUAAGAGGUGAGAAGGAAUCUUUAGAUCUUCGAAAGGAAAAAGAGACACUUGAGAAAAAACUUAGAGAUGCAAAUAAGGAACUUGAGAAAAACACUAACAAAAUUAAGCAGCUUUCUCAG; value = 0.985 ratio
Strand = UCUGCCCCAGAACAAUUCUGCAGAGUGGUGAAGUUCACUUCCCCAACUCUUCUCCAAGUCUAGCUUUCCUUUCCUUCUGGCUCCAAGGUGCUCUGUGUCCGUCUGUGUAUGUGUGUGUCU; value = 1.19 ratio
Strand = AUUAUUGCAUGCAUAGAAAGCCAUCAGUUCCAAGCAAAAAAUUUUUGCUGCUGUUUUUAUUUUUAAGGAAUGGUCGUUGGAGGUCAGAAUGGAAGUUUACAAUCACUCCUUCAACCACUC; value = 0.342 ratio
Strand = CAGAACCUAAACUUAUAGCAAAAGAGCCAAGCAGUAGCAGUUUUUGUAAAUGUAAAAAUAAUUAGAUCCAGACUUUGUUUCCUUCAAUUUUAAAAAUAAAAAAUACCUCAGUGCUAUGUU; value = 7.49 ratio
Strand = AAGACAUACGGGGAGCCUGAGUCUGUGGGCAUGUCCAAGAGCUUCCGCCAGCCGGGGACCUCACUUGUAGAUGCUGAUACCUUCCAUCACCAGGUGCGUGAUGACAUUUUCUCUUCUUUA; value = 0.138 ratio
Strand = AUGUAGUGUGUGCACUUGUGCAGAAUGAGAAGCUUCCCAUGAACAUUUGAACUGAGACGGGGCAGAGGACAGAUCCCUCCCUGUGAAAGAAUUGUCAGUAAGUGAAGUGCUUUCAUCCCA; value = 0.112 ratio
Strand = GAAAACGGCGAAAGGAGCGGAGGGGUGCCUCUGAUCAAGGCCCCCAAGAGAGAAACAGCAGAUGAAAAUGGUAAAACCCAGAGAGCUGAUGAUUUUGUCUUGAAGAAAAUAAAGAAGAAA; value = 0.25 ratio
Strand = ACAGUUAGAAAGCAAAGUGUUAAAUGGAGAAGAUACUUGUUUUUAUUAAACAUUUUGAGAUUUAGAUAAACUACAUUUUAACUGAAUGUCUAAAGUGAUUAUCUUUUUUCCCCCCAAGUU; value = 0.628 ratio
Strand = AGACUGAAUGCUACUUACUAUAUUACCAAGCAAAUCCUUCCACCCUUGGCAAGAAUCUUCUCACUUAUUGGUAUUGAUGUCUUCAGCUGGUAUCAUGAAUUACCAAGGAUCCAUAAAGCU; value = 0.252 ratio

Sample 4 — technique: Sort-seq; item: YFP reporter; sample: E. coli; notes: PhoQ-PhoP variant library; together with: 10 µM Mg2+; relative to: high Mg2+ state; direction: higher = stronger signaling; measurement: fold induction
Molecule: PhoQ, residues 284 288 289 292 302 303 NSMLDC
target = PhoP, residues 12 14 15 18 19 VGHWL (Escherichia coli, UniProt P23836); value = 2.72
target = PhoP, residues 12 14 15 18 19 NFFVT (Escherichia coli, UniProt P23836); value = 10.6
target = PhoP, residues 12 14 15 18 19 LHHYF (Escherichia coli, UniProt P23836); value = 36.3
target = PhoP, residues 12 14 15 18 19 TPWTL (Escherichia coli, UniProt P23836); value = 4.26

Sample 5 — technique: DHFR PCA, deep sequencing; sample: yeast; together with: (+)-ABA 4.8 µM; relative to: wild-type fitted maximum; direction: higher = stronger binding; measurement: relative binding score
Target: ABI1, truncated, D143A, DHFR fusion (Arabidopsis thaliana)
Notes: methotrexate growth selection, single substitutions
Starting sequence: PYL1, truncated, DHFR fusion (Arabidopsis thaliana); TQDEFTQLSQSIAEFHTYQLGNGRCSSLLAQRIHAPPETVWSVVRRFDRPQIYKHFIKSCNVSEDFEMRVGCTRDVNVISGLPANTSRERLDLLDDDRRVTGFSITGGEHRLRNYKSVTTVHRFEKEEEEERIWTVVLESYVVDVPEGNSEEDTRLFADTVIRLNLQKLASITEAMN; partner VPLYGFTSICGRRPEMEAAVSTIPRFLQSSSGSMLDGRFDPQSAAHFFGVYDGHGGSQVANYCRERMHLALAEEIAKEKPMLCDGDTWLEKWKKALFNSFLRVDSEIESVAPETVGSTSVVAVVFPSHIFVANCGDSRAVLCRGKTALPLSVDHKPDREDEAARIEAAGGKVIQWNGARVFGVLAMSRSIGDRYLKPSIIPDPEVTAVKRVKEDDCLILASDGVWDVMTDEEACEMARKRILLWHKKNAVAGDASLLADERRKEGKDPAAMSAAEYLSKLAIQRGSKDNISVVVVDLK
Variant = Y141K; value = -3.57%
Variant = H110M; value = 9.78%
Variant = K58P; value = 5.23%
Variant = R111E; value = -6.48%
Variant = E131A; value = 79.5%
Variant = R49P; value = 1.38%
Variant = F66W; value = 57.2%
Variant = E127M; value = 75.7%
Variant = T106Y; value = 65.7%
Variant = G71Q; value = -17.9%
Variant = T106S; value = 14.2%
Variant = F15Y; value = 71.2%
Variant = S26W; value = 39.3%
Variant = Q31L; value = 1.66%
Variant = T1F; value = 71.4%
Variant = S59P; value = -0.529%
Variant = C60R; value = 19.5%
Variant = K54L; value = -5.81%

A few entries again (sample 3):
Strand = AUUAUUGCAUGCAUAGAAAGCCAUCAGUUCCAAGCAAAAAAUUUUUGCUGCUGUUUUUAUUUUUAAGGAAUGGUCGUUGGAGGUCAGAAUGGAAGUUUACAAUCACUCCUUCAACCACUC; value = 0.342 ratio
Strand = AGACUGAAUGCUACUUACUAUAUUACCAAGCAAAUCCUUCCACCCUUGGCAAGAAUCUUCUCACUUAUUGGUAUUGAUGUCUUCAGCUGGUAUCAUGAAUUACCAAGGAUCCAUAAAGCU; value = 0.252 ratio
Strand = AUGUAGUGUGUGCACUUGUGCAGAAUGAGAAGCUUCCCAUGAACAUUUGAACUGAGACGGGGCAGAGGACAGAUCCCUCCCUGUGAAAGAAUUGUCAGUAAGUGAAGUGCUUUCAUCCCA; value = 0.112 ratio
